{"data": "Experimental data of several laboratories", "note": "Protocols differ between the studies behind these lines. ± gives the spread as reported."}
{"Structure (SMILES)": "Cc1cccc(C)c1NC(=O)C1CCN(Cc2ccccc2)C1 (racemic)", "target": "Nav1.4, Pelophylax lessonae", "assay": "sodium current, use-dependent blocker, vaseline gap voltage clamp", "system": "skeletal muscle fibres", "setting": "10 Hz pulse trains", "IC50": "2.2 ± 0.1 µM"}
{"Structure (SMILES)": "CC(C)=CCC/C(C)=C/Cc1c(O)cc(/C=C/c2ccc(O)cc2O)cc1O", "target": "NF-κB (human)", "assay": "reporter gene, inhibitor", "system": "SW1353", "setting": "added: PMA", "IC50": "22.5 µg/mL"}
{"Structure (SMILES)": "NC(=O)c1ccc2c(c1)Oc1ccccc1N2Cc1ccc(C(=O)NO)cc1", "target": "HeLa nuclear HDACs", "assay": "enzyme activity, inhibitor", "setting": "added: Boc-Lys(Ac)-AMC", "IC50": "0.2 ± 0.01 µM"}
{"Structure (SMILES)": "CC(C)/C=C/c1c(O)cc(/C=C/c2ccc(O)c(O)c2)cc1O", "target": "NF-κB (human)", "assay": "reporter gene, inhibitor", "system": "SW1353", "setting": "added: PMA", "IC50": "12 µg/mL"}
{"Structure (SMILES)": "Cc1ccc(-c2cc(CF)nn2-c2ccc(S(N)(=O)=O)cc2)cc1", "target": "COX-2 (mouse)", "assay": "enzyme activity, inhibitor", "system": "RAW264.7", "setting": "30 min, added: LPS 200 ng/mL and IFN-gamma 10 U/mL", "IC50": "0.08 µM"}
{"Structure (SMILES)": "C=C1C(=O)O[C@H]2[C@H]1CC/C(C)=C/CC[C@@]1(C)O[C@@H]21", "target": "NF-κB (human)", "assay": "reporter gene, inhibitor", "system": "SW1353", "setting": "added: PMA", "IC50": "0.8 µg/mL"}
{"Structure (SMILES)": "Cc1ccc2ncn(Cc3cn(Cc4ccc(/C=C/C(=O)NO)cc4)nn3)c(=O)c2c1", "target": "HDAC", "assay": "enzyme activity, inhibitor, fluorogenic", "system": "HeLa nuclear extract", "setting": "30 min, 37 °C", "IC50": "0.571 µM"}
{"Structure (SMILES)": "O=C(NO)c1ccc(CN2c3ccccc3Oc3ccccc32)cc1", "target": "HeLa nuclear HDACs", "assay": "enzyme activity, inhibitor", "setting": "added: Boc-Lys(Ac)-AMC", "IC50": "0.54 ± 0.05 µM"}
{"Structure (SMILES)": "O=C(Nc1ccccc1)C1CCN(Cc2ccccc2)C1 (centres unmarked)", "target": "Nav1.4, Pelophylax lessonae", "assay": "sodium current, use-dependent blocker, vaseline gap voltage clamp", "system": "skeletal muscle fibres", "setting": "10 Hz pulse trains", "IC50": "8.4 ± 0.4 µM"}
{"Structure (SMILES)": "CC(C)N1C(=O)N(c2ccccc2)CS/C1=N\\C(C)(C)C", "target": "mouse monoclonal antibody 19F2", "assay": "antibody binding, indirect competitive ELISA", "setting": "pH 5.5", "IC50": "0.0018 µg/mL"}
{"Structure (SMILES)": "O=C(NO)c1ccc(Cn2cc(Cn3cnc4ccc(Br)cc4c3=O)nn2)cc1", "target": "HDAC", "assay": "enzyme activity, inhibitor, fluorogenic", "system": "HeLa nuclear extract", "setting": "30 min, 37 °C", "IC50": "0.188 µM"}
{"Structure (SMILES)": "CCCS(=O)(=O)Nc1ccc(F)c(C(=O)c2c[nH]c3ncc(-c4ccc(Cl)cc4)cc23)c1F", "target": "MEK phospho-Ser217/221", "assay": "MEK phosphorylation, inhibitor", "system": "mouse A-375 xenograft, tumour", "IC50": "16.8 µg/mL"}
{"Structure (SMILES)": "CC1(C)C=Cc2c(O)cc(/C=C/c3ccc(O)cc3)cc2O1", "target": "NF-κB (human)", "assay": "reporter gene, inhibitor", "system": "SW1353", "setting": "added: PMA", "IC50": "> 25 µg/mL"}
{"Structure (SMILES)": "Cc1cccc(C)c1NC(=O)C1CCCN(Cc2ccccc2)C1 (centres unmarked)", "target": "Nav1.4, Pelophylax lessonae", "assay": "sodium current, use-dependent blocker, vaseline gap voltage clamp", "system": "skeletal muscle fibres", "setting": "10 Hz pulse trains", "IC50": "4.5 ± 0.3 µM"}
{"Structure (SMILES)": "CO[C@@H]1O[C@@H]2COC(C)(C(=O)O)O[C@@H]2[C@H](O)[C@H]1O (single isomer, unassigned)", "target": "human IgM WEA", "assay": "precipitation, inhibitor, quantitative precipitin inhibition", "setting": "added: agar", "IC50": "0.2 µM"}
{"Structure (SMILES)": "Cc1ccc2c(=O)n(Cc3cn(Cc4ccc(C(=O)NO)cc4)nn3)cnc2c1", "target": "HDAC", "assay": "enzyme activity, inhibitor, fluorogenic", "system": "HeLa nuclear extract", "setting": "30 min, 37 °C", "IC50": "0.146 µM"}
{"Structure (SMILES)": "Cc1cccc(C)c1NC(=O)C(C)N (centres unmarked)", "target": "Nav1.4, Pelophylax lessonae", "assay": "sodium current, use-dependent blocker, vaseline gap voltage clamp", "system": "skeletal muscle fibres", "setting": "10 Hz pulse trains", "IC50": "> 200 µM"}
{"Structure (SMILES)": "O=C(/C=C/c1ccc(Cn2cc(Cn3cnc4cc(F)ccc4c3=O)nn2)cc1)NO", "target": "HDAC", "assay": "enzyme activity, inhibitor, fluorogenic", "system": "HeLa nuclear extract", "setting": "30 min, 37 °C", "IC50": "0.464 µM"}
{"Structure (SMILES)": "CC(C)(O)C(O)Cc1cc(/C=C/c2cc(O)cc(O)c2)ccc1O (centres unmarked)", "target": "NF-κB (human)", "assay": "reporter gene, inhibitor", "system": "SW1353", "setting": "added: PMA", "IC50": "> 25 µg/mL"}
{"Structure (SMILES)": "O=C(NO)c1ccc(Cn2cc(Cn3cnc4ccccc4c3=O)nn2)cc1", "target": "HDAC", "assay": "enzyme activity, inhibitor, fluorogenic", "system": "HeLa nuclear extract", "setting": "30 min, 37 °C", "IC50": "0.262 µM"}
{"Structure (SMILES)": "CC(C)(O)C(O)C(=O)Nc1cccc(C(=O)N2CCC(c3cccc(CN)c3)CC2)c1 (centres unmarked)", "target": "tryptase, human", "assay": "enzyme activity, inhibitor", "system": "HMC1", "setting": "2 h, added: A23187 1 µM", "IC50": "31.5 µM"}
{"Structure (SMILES)": "Cc1cc(C)c(C)c(NC(=O)C2CCN(Cc3ccccc3)C2)c1C (centres unmarked)", "target": "Nav1.4, Pelophylax lessonae", "assay": "sodium current, use-dependent blocker, vaseline gap voltage clamp", "system": "skeletal muscle fibres", "setting": "2 Hz pulse trains", "IC50": "4.2 ± 0.3 µM"}
{"Structure (SMILES)": "Oc1ccc(/C=C/c2cccc(O)c2)cc1", "target": "NF-κB (human)", "assay": "reporter gene, inhibitor", "system": "SW1353", "setting": "added: PMA", "IC50": "> 25 µg/mL"}
{"note": "Excerpt of the above:"}
{"Structure (SMILES)": "Cc1cccc(C)c1NC(=O)C1CCN(Cc2ccccc2)C1 (racemic)", "target": "Nav1.4, Pelophylax lessonae", "assay": "sodium current, use-dependent blocker, vaseline gap voltage clamp", "system": "skeletal muscle fibres", "setting": "10 Hz pulse trains", "IC50": "2.2 ± 0.1 µM"}
{"Structure (SMILES)": "O=C(/C=C/c1ccc(Cn2cc(Cn3cnc4cc(F)ccc4c3=O)nn2)cc1)NO", "target": "HDAC", "assay": "enzyme activity, inhibitor, fluorogenic", "system": "HeLa nuclear extract", "setting": "30 min, 37 °C", "IC50": "0.464 µM"}
{"Structure (SMILES)": "C=C1C(=O)O[C@H]2[C@H]1CC/C(C)=C/CC[C@@]1(C)O[C@@H]21", "target": "NF-κB (human)", "assay": "reporter gene, inhibitor", "system": "SW1353", "setting": "added: PMA", "IC50": "0.8 µg/mL"}
